Assay results gathered from unrelated publications.
Values joined by “and” are separate records of one study, mostly repeats; a detail may differ.

For Oc1ccc(N=Nc2ccc(-c3nc4ccccc4s3)cc2)cc1CN(Cc1ccccc1)Cc1ccccn1, the viability was roughly 70% (Neuro2a; DMEM-N2 medium; 20 µM, 48 h).
With O=[N+]([O-])c1cc(-c2noc(C3CCC3)n2)ccc1NCCCCCCN1C[C@H](O)[C@@H](O)[C@H](O)[C@H]1CO the viability was 100% (A549 expressing ACE2; WST-1; 25 µM, 3 days).
With N[C@H](CCC(=O)N[C@H](CCC[C@H](N)C(=O)O)C(=O)O)C(=O)O the viability was 97.8% (HFF-1; 10 µg/mL).
The viability of Cn1cc2cc(C(F)(F)c3nnc4ccc(-c5cnn(C6CC6)c5)nn34)c(F)cc2n1 is reported as 94.7% and 98.6% and 95.5% (MKN-45; CCK-8; 0.0025 µM, 72 h; relative to: untreated).
CC(C)(C)OC(=O)N(Cc1ccco1)C(=O)c1ccc(CN2C(=O)c3ccccc3S2(=O)=O)cc1 — result for viability: “not toxic” (RAW264.7; WST-1; up to 100 µM).
COCCCCCCCCCN1C[C@H](O)[C@@H](O)[C@H](O)[C@H]1CO gave a viability of 100% (A549 expressing ACE2; WST-1; 25 µM, 3 days).
The viability of CC[C@H](C)[C@H](N)C(=O)N[C@@H](CC(C)C)C(=O)NCC(=O)N[C@H](CCCNC(=N)N)C(=O)N[C@H](C(=O)N[C@@H](Cc1c[nH]c2ccccc12)C(=O)N[C@@H](CCCCN)C(=O)NCC(=O)N[C@H](C(=O)N[C@@H](CCCCN)C(=O)N[C@@H](CC(=O)O)C(=O)N[C@H](C(=O)N[C@@H](CC(C)C)C(N)=O)[C@@H](C)CC)[C@@H](C)CC)[C@@H](C)CC is reported as roughly 80% (RAW264.7; MTT; 100 µM, 4 h, serum-free medium).
For O=[N+]([O-])c1cc(-c2ccccc2)ccc1NCCCCCCN1C[C@H](O)[C@@H](O)[C@H](O)[C@H]1CO, the viability was 100% (A549 expressing ACE2; WST-1; 25 µM, 3 days).
C=CCn1c(=O)n([C@@H]2O[C@H](CO)[C@@H](O)[C@H]2O)c2nc(N)[nH]c(=O)c21 gave a viability of 88.7% (HFF-1; 100 µM, 48 h).
CC(C)C[C@@H](NC(=O)CNC(=O)[C@@H](CCCCN)NC(=O)[C@@H](CC(C)C)NC(=O)[C@@H](CCCCN)NC(=O)[C@@H](CCCNC(=N)N)NC(=O)[C@@H](CC(C)C)NC(=O)[C@@H](CC(C)C)NC(=O)[C@@H](CCCNC(=N)N)NC(=O)[C@H](N)CCCNC(=N)N)C(=O)N[C@H](CCCCN)C(=O)N[C@H](CCCCN)C(=O)N[C@H](Cc1ccc(O)cc1)C(=O)N[C@H](CC(C)C)C(=O)N[C@H](Cc1ccc(O)cc1)C(=O)N[C@H](Cc1ccccc1)C(=O)N[C@H](CCCCN)C(=O)N[C@H](CC(C)C)C(=O)N[C@H](CCC(N)=O)C(=O)N[C@H](CC(C)C)C(=O)N[C@H](CC(C)C)C(=O)N[C@H](CCCCN)C(=O)N[C@H](CCCCN)C(N)=O gave a viability of roughly 35% (RAW264.7; MTT; 64 µM, 48 h).
Nc1ncnc2c1ncn2[C@@H]1O[C@@H]2COP(=O)(O)O[C@H]3[C@@H](O)[C@H](n4cnc5c(=O)[nH]cnc54)O[C@@H]3COP(=O)(O)O[C@H]2[C@H]1O has a viability of 91.7% (HFF-1; 1 µg/mL).
For CC[C@H](C)[C@H](NC(=O)CNC(=O)[C@H](CCSC)NC(=O)[C@H](CO)NC(=O)[C@@H](NC(=O)[C@H](CCC(N)=O)NC(=O)[C@H](CC(C)C)NC(=O)CNC(=O)[C@@H](NC(=O)[C@H](CO)NC(=O)[C@H](CCCCN)NC(=O)[C@H](CC(C)C)NC(=O)[C@H](CCCCN)NC(=O)[C@H](CCCCN)NC(=O)[C@H](CCCCN)NC(=O)[C@@H](NC(=O)[C@H](CCCCN)NC(=O)[C@@H]1CSSC[C@H](NC(=O)[C@H](CCCCN)NC(=O)[C@@H](N)CCCCN)C(=O)N[C@@H](CCCCN)C(=O)N[C@@H](Cc2ccccc2)C(=O)N[C@@H](CC(C)C)C(=O)N1)C(C)C)C(C)C)[C@@H](C)CC)C(=O)O, the viability was greater than 50% (amphibian and mammalian cell lines; MTT; up to 6.25 µM, 24 h).
[N-]=[N+]=Nc1ccc(NCCCCCCN2C[C@H](O)[C@@H](O)[C@H](O)[C@H]2CO)c([N+](=O)[O-])c1 gave a viability of 100% (A549 expressing ACE2; WST-1; 25 µM, 3 days).
For CC(=O)N[C@@H]1[C@@H](O[C@H](C)C(=O)N[C@@H](C)C(=O)N[C@H](CCC(=O)O)C(N)=O)[C@H](O)[C@@H](CO)O[C@H]1O, the viability was 83.6% (HFF-1; 100 µg/mL).

Excerpt of the above:
With N[C@H](CCC(=O)N[C@H](CCC[C@H](N)C(=O)O)C(=O)O)C(=O)O the viability was 97.8% (HFF-1; 10 µg/mL).
CC(C)C[C@@H](NC(=O)CNC(=O)[C@@H](CCCCN)NC(=O)[C@@H](CC(C)C)NC(=O)[C@@H](CCCCN)NC(=O)[C@@H](CCCNC(=N)N)NC(=O)[C@@H](CC(C)C)NC(=O)[C@@H](CC(C)C)NC(=O)[C@@H](CCCNC(=N)N)NC(=O)[C@H](N)CCCNC(=N)N)C(=O)N[C@H](CCCCN)C(=O)N[C@H](CCCCN)C(=O)N[C@H](Cc1ccc(O)cc1)C(=O)N[C@H](CC(C)C)C(=O)N[C@H](Cc1ccc(O)cc1)C(=O)N[C@H](Cc1ccccc1)C(=O)N[C@H](CCCCN)C(=O)N[C@H](CC(C)C)C(=O)N[C@H](CCC(N)=O)C(=O)N[C@H](CC(C)C)C(=O)N[C@H](CC(C)C)C(=O)N[C@H](CCCCN)C(=O)N[C@H](CCCCN)C(N)=O gave a viability of roughly 35% (RAW264.7; MTT; 64 µM, 48 h).
